Published values gathered from unrelated publications.
Every numbered part comes from another study and shows a few of its results, in no order.

Series 1
Target: RNA binding protein fox-1 homolog 2, RRM domain, GST-SBP tag (RBFOX2, Homo sapiens, UniProt O43251-10, residues 100-194)
Technique: RNA Bind-n-Seq
Form: RNA
Matrix: in vitro
Concentration: 365 nM
Setting: natural RNA segment, single round, ends assumed
Reference: no-protein control
Direction: higher = stronger binding
Shared flanks, not repeated: GGGAGUUCUACAGUCCGACGAUC … UGGAAUUCUCGGGUGCCAA
Construct (chain): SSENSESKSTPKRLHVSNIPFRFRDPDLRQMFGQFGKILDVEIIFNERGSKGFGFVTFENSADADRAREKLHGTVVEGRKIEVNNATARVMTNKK
Oligonucleotide	RBNS enrichment (R)
GGAUUAAUCCAGGCAAAAGAAGAGACUUUAUCAGAGAGUGGAGUGAAGCAUUGUGGGUACUACCCGUGUCCCAUGUUCACAGUAACAAAUUCACAUGCAGGAUUUACUUU	0.356
CAAAAGGAAGUGAUUAUGCAGCUGUGUGUAGAGUUUCAGAGCAAGUUCCUCAGCAGUGUAGAUGAAUUCACAUCAUUUAUGUUUUAACGGCGUUUUUUUGGAAAGCAUAA	0.426
AGAAAGAAUUUCAAGUUAACAGUAUCUAACUUUAUCAUAGUUGAUGUUAGUAAAUUUUAAAAAAUGAUUUUAUAUGUAUGACAAAAAUCUUUGUAAAAUGCGCAAGUGCA	18.6
UGUGUGUGUGUUUUUUUUUUUCUUAAGUGACUUUGAAAUUUUAAAUAACAAUUUAAAACAUUAAAAUUUCUUAUUAUCUUGGUCAUUUAAACCUGCUAAUAUGACUCCCU	0.697
ACCUUCAGCUCAUCGGAUGUACAGUUUACAGUUGAGUAACAGUGAACGGAAGGAUUUUCUUUCUUGGUCGGAUGUGCAGAACUUGGGAUGUGUAUAUAUAAAUAUAUAAU	0.965
AUUCAAAGAAAGAGCAACUACUUUGGACCAAAAGCCCAUGGCCUGGGGAGCUGGGCAGGUAGAGCCCAAGCUCCAGGUGAGGCCUGGCCCUGGGCAGGGUCUGUGGCUGC	0.596
UGUUGGUGGCUCUUAUUUCUGAAUUCAAAGCUUGUGAAAAAAAAUAAAGAAAUUAAAUUGCCCGUUGAUCUGAGUGGGUGUUUUCACUUGGGUUUAUCAACUGCCUGGUC	1.24
CAUGAAUUAGAUUUUACUGCUUGUCAUUUUGUUAUUUUCUUACCAAGUGCAUUGAUAUGUGAAGUAGAAUGAAUUGCAGAGGAAAGUUUUAUGAAUAUGGUGAUGAGUUA	0.319

Series 2
Target: Phosphate system positive regulatory protein PHO4, full length, GST-tagged (PHO4, Saccharomyces cerevisiae, UniProt P07270, residues 1-312)
Technique: competition protein-binding microarray
Form: double-stranded DNA, one strand shown
Matrix: in vitro
Concentration: 2 µM
Setting: whole 60-bp probe, lowest competitor level
Together with: Cbf1 competitor, 0.05 µM
Direction: higher = stronger binding
Shared flanks, not repeated: … GTCTTGATTCGCTTGACGCTGCTG
Target sequence (chain): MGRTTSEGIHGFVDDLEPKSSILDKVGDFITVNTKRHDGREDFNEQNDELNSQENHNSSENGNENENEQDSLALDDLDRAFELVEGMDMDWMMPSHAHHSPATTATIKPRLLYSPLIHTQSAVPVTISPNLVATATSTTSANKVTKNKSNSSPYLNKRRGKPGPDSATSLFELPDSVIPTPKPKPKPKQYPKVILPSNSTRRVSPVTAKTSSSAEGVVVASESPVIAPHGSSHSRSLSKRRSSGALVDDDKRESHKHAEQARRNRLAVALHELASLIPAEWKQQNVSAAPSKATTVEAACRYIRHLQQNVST
Oligonucleotide	fluorescence intensity
TAGTTGCATCATCGACACATGCAATATCAAAAGTAA	8660 a.u.
TGTCGTTTGGTTATTGTCGTGGGTATGCTTCTATGT	7240 a.u.
AAATTACTAAGTTGGCGGGTGGGTGACGCCGTATGA	4450 a.u.
CGGGGTTAAGTTTGCACAGTGGGTGGCTTGCAGCAG	5220 a.u.
TGCAGTTCTTCAGCAAACGTGATGGGCAAAACAACG	9420 a.u.
ACCACTCAGGTCCAGAACGTGACTCGTCTTTGCACC	11300 a.u.
CCGATGGGTCCCAGACACGTGGTGAAACGAGGTGCA	17900 a.u.
CTTCTGTAAATTTGATGTGTGGGTGGACGCGCCCCG	5840 a.u.
ATGGACAATAACGACCACGTGGGTAACGCAATGACT	21300 a.u.
TTACTTTCTCTCGCGGTTGTGACGGCCTTCAATGAA	3980 a.u.
GCTTGTGAACAGCGTCACAGATCCAGTTGTAACGAG	3250 a.u.
AGCAGCATTATCCATGACATGACAAGGATCTACCGA	3940 a.u.
GACACATCTCTGAGCAGCATGACAGGGTTGTCCCAA	4880 a.u.
TCTTTCATTAATCGCCACCTGATGTTTTTCGCTGCT	3970 a.u.
CAGGGCATAAAGAGGCACATGCGGCGTTTGTAGCCG	10900 a.u.
CTTCTGTAAATTTGAACTGTGGGTGGACGCGCCCCG	4070 a.u.

Series 3
Target: Histone acetyltransferase KAT6A, both winged helices, GST fusion (KAT6A, Homo sapiens, UniProt Q92794, residues 1-181)
Technique: protein binding microarray
Form: double-stranded DNA, one strand shown
Matrix: in vitro
Concentration: not given
Setting: 8-mer, flanks averaged, mean of 2 arrays, mostly near background
Reference: not given
Direction: higher = stronger binding
Target sequence (chain): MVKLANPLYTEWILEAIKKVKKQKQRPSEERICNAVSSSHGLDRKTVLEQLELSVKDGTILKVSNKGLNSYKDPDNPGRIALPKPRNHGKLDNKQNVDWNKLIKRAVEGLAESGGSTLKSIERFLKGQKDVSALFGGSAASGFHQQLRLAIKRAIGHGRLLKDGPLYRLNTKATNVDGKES
Oligonucleotide	E-score
ACATTCGT	-0.122
CCCAGTCA	-0.191
GCGGTTCA	0.22
ACGTGAGA	-0.166
ACATGACT	-0.1
CGTGGGCA	-0.072
CTCGCACA	0.0348
AATTCAGA	-0.0757
ATACGATC	-0.0574
GTTACGTA	-0.0563
CACAAGCA	-0.178
CACATTGG	-0.0883
AAATATTC	-0.132
AAGTCTAC	-0.198
ATGAATTA	-0.061
GATAACAA	-0.0857

Series 4
Target: Interferon regulatory factor 3, full length, phosphomimetic (IRF3, Homo sapiens, UniProt Q14653, residues 1-427, S386D/S396D/S398D/S402D/T404D/S405D)
Technique: protein-binding microarray
Form: double-stranded DNA, one strand shown
Matrix: in vitro
Concentration: 2540 nM top
Setting: 60-bp whole probe
Together with: salmon DNA 0.4 mg/ml
Reference: random background probes
Direction: higher = stronger binding
Shared flanks, not repeated: GCCTAGCAC … GTCTTGATTCGCTTGACGCTGCTG
Construct (chain): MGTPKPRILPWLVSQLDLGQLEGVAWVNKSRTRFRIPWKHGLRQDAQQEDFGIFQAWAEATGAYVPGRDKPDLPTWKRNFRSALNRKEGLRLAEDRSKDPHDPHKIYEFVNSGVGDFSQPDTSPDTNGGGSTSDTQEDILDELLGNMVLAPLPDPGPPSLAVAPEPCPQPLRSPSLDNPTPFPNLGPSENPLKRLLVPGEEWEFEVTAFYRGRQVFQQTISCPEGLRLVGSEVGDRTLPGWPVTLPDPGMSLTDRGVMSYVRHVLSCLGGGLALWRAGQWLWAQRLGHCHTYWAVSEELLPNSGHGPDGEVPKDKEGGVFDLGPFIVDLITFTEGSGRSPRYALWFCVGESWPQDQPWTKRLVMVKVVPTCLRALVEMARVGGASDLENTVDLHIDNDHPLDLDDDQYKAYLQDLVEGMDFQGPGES
Oligonucleotide	fitted relative affinity
TTAGATGTCAGTCTCGATTAGTGCTAG	0.675 z-score
TTAGATATCGGTATCGGTTAGTGCTAG	3.24 z-score
GGCTGTTTGGCCCTGAACCTGTGCTAG	-0.48 z-score
GACGAACTGAGTATCTAGACGTGCTAG	-0.159 z-score
GTCGATCTCAGACTGGAGACGTGCTAG	0.988 z-score
TTATGTCTCCTTCTCCTTTAGTGCTAG	3.98 z-score
GACGGTATCGGACTTGGGACGTGCTAG	2.57 z-score
GACGATTTCGCGTATCGAGACGTGCTA	0.829 z-score
TCAGGAGTCAACTCTCTAACTGTGCTA	-0.308 z-score
TTAGATCTCAGTTTCAATTAGTGCTAG	1.71 z-score
TTAGATATCAGTATCGATTCGTGCTAG	2.57 z-score
GACGATCTCAGTATCGAGGCGTGCTAG	0.769 z-score
TTAGGTTTCGTTTTCCTTTAGTGCTAG	9.74 z-score
GACGGTCTCGGGCTGGGGACGTGCTAG	-0.377 z-score
TGAGTAATTACATAATTACGGTGCTAG	0.0633 z-score
GACGATTTCAGTCTCAAGACGTGCTAG	2.23 z-score
GACGAACTGAGACCGGAGACGTGCTAG	-0.21 z-score
TTAGGTTGCCTTCTCCTTTAGTGCTAG	6.26 z-score
TCATATTTTTTTGTAATACTGTGCTAG	0.565 z-score

A few entries again (series 3):
Oligonucleotide	E-score
AATTCAGA	-0.0757
ATACGATC	-0.0574
GTTACGTA	-0.0563
CACAAGCA	-0.178
CACATTGG	-0.0883
AAATATTC	-0.132
AAGTCTAC	-0.198
ATGAATTA	-0.061
GATAACAA	-0.0857
